Published values from different studies.
Lines come from different studies, so protocols differ. Several values in a cell are separate wells, animals, samples, runs or records.
Target: Calcium/calmodulin-dependent protein kinase type II subunit gamma (CAMK2G, Homo sapiens, UniProt Q13555)

CCN1CCN(Cc2ccc(C(=O)Nc3ccc(C)c(NCc4cnc5[nH]ccc5c4OC)c3)cc2C(F)(F)F)CC1  remaining binding (binding, competition with immobilised ligand; 1 µM): 100%
CNC(=O)C[C@H](Cc1ccc(C#N)cc1)NC(=O)c1cc(-c2ccc(CN[C@H](C)c3ccc(C)cc3)o2)ccc1Cl  activity vs control (enzyme activity, inhibitor; 1 µM): 93%
COc1c(Cl)cccc1Nc1c(-c2ccncc2C#C[C@@]2(C)CCCN2C(=O)/C=C/CN(C)C)[nH]c2c1C(=O)NCC2  remaining binding (binding, competition with immobilised ligand; 3 µM): 100%
CCn1cc(C(=O)O)c(=O)c2c(N)c(F)c(NC3CCCCC3)cc21  inhibition (kinase activity; 0.1 µM, together with: ATP at Km): 1.2%
N[C@H]1CC[C@H](Nc2nccc(-c3cccnc3Oc3ccc(NC(=O)NC4CC4)c4ccccc34)n2)CC1  log2 LFQ intensity (kinobead competition pulldown; HEK293/HCT116 lysate mixture; 10 µM, 1 h, 4 °C; lower = stronger competition): 30 and 29.9 and 29.8
NC(=O)[C@@H](O)C[C@H]1CCc2sc3ncnc(O[C@H]4CC[C@H](N5CCOCC5)CC4)c3c21  inhibition (enzyme activity, inhibitor; 10 µM): -6%
COc1c(OCCCN2CCOCC2)ccc2c1N=C(NC(=O)c1cnc(N)nc1)N1CCN=C21  remaining activity (kinase activity, inhibitor; 1 µM; relative to: untreated control): 93%
CN1CCN(Cc2ccc(-c3ccc(CO[C@H]4CCC[C@@H]4NC(=O)c4cc(-c5cnn(C)c5)cnc4N)cc3)cc2)CC1  inhibition (enzyme activity, inhibitor; 0.1 µM): 6%
Cc1cccc(O[C@H]2CCC[C@@H](C(C)CNCc3ccncc3)C2)c1 (relative stereo)  inhibition (cell-free assay; 1 µM): -10%
C=CC(=O)N1CCc2ccc(-n3c(=O)ccc4cnc5ccc(-c6cnn(C)c6)cc5c43)cc21  remaining binding (KINOMEscan; 1 µM; relative to: DMSO control): 100%
CC(C)=CC1OC(C)(C)C2C=C3C(=O)C(Cl)=CC(O)C3C3C(O)C4OC4C(=O)C132 (stereo not drawn)  remaining binding (cell-free assay, competition with immobilised ligand; 10 µM): 94%
O=C(Cc1ccc(OCc2ccccc2)cc1)NC1(C(=O)O)CCN(C(=O)c2ccc(-c3cccc(Cl)c3)cc2)CC1  activity vs control (enzyme activity, inhibitor; 10 µM): 96%
C=CC(=O)Nc1cccc(-c2cnc3[nH]cc(C(=O)NC(C)(C)C)c3n2)c1  inhibition (enzyme activity, inhibitor; 0.1 µM): -1%
O=C=[N][Ru-4]123([n]4c5ccc(O)cc5c5c6c(c7cc(F)c[n+]1c7c54)C(=O)NC6=O)[S+]1CC[S+]2CC[S+]3CC1 (stereo not drawn)  remaining activity (enzyme activity; 100 nM, human enzyme, together with: 10 µM ATP; relative to: untreated): 29%
COc1cc(Nc2nc(C)cc(-c3cnn4nc(OC)ccc34)n2)cc(C(F)(F)F)c1  remaining activity (inhibitor; 1 µM; relative to: control): 90%

Some of these lines once more:
C=CC(=O)Nc1cccc(-c2cnc3[nH]cc(C(=O)NC(C)(C)C)c3n2)c1  inhibition (enzyme activity, inhibitor; 0.1 µM): -1%
O=C=[N][Ru-4]123([n]4c5ccc(O)cc5c5c6c(c7cc(F)c[n+]1c7c54)C(=O)NC6=O)[S+]1CC[S+]2CC[S+]3CC1 (stereo not drawn)  remaining activity (enzyme activity; 100 nM, human enzyme, together with: 10 µM ATP; relative to: untreated): 29%
